Measured values gathered from unrelated publications.
Protocols differ between the studies behind these lines. ± marks the error that the study gave.

`COc1ccc(Nc2nc(Nc3ccc(OCCOCCOCC[18F])cc3)ncc2Br)cc1` has a tissue uptake of 2.57 ± 0.03 %ID/g (ICR mice, S180 tumour-bearing, bone; intravenous, 370 kBq, 15 min).
The tissue uptake of `CCCC[C@H](NC(=O)CCCCCCCNC(=O)CN1CCN(CC(=O)O)CCN(CC(=O)O)CC1)C(=O)N[C@H]1CC(=O)NCCCC[C@@H](C(N)=O)NC(=O)[C@H](Cc2c[nH]c3ccccc23)NC(=O)[C@H](CCCNC(=N)N)NC(=O)[C@@H](Cc2ccccc2)NC(=O)[C@H](Cc2c[nH]cn2)NC1=O` [fluorine-18 labelled] is reported as 0.94 ± 0.3 %ID/g (C57 mice, B16/F10 melanoma, bone; intravenous, 1 h, with: NDP-MSH 10 µg).
With `N#C[C@@H]1CCCN1C(=O)CNC(=O)c1ccnc2ccc(OCCCN3CCN(C(=O)CCc4ccc5c(c4)CN4CCN(Cc6cc(CCC(=O)O)ccc6O)CC(=O)[O][Al-]([18F])([O]C(=O)C4)[O]5)CC3)cc12` (some centres unmarked) the tissue uptake was 0.93 ± 0.21 %ID/g (BALB/c nude mice, U-87 MG xenograft, heart; 1 h).
For `CC(C)C[C@H](NC(=O)[C@@H](CCCCNC(=O)[C@@H](Cc1ccccc1)NC(=O)CCCCCCCNC(=O)CN1CCN(CC(=O)O)CCN(CC(=O)O)CCN(CC(=O)O)CC1)NC(=O)[C@H](Cc1ccc(O)cc1)NC(=O)[C@H](CO)NC(=O)[C@H](Cc1c[nH]c2ccccc12)NC(=O)[C@H](Cc1c[nH]cn1)NC(=O)[C@@H]1CCC(=O)N1)C(=O)N[C@@H](CCCNC(=N)N)C(=O)N1CCC[C@H]1C(=O)NCC(N)=O` [indium-111 labelled], the tissue uptake was 0.58 ± 0.21 %ID/g (male athymic nude mice, DU-145 prostate cancer xenograft, blood; intravenous, 0.037 MBq, 1 h).
With `COc1ccc(Nc2nc(Nc3ccc(OCCOCC[18F])cc3)ncc2Br)cc1` the tissue uptake was 1.61 ± 0.21 %ID/g (ICR mice, S180 tumour-bearing, spleen; intravenous, 370 kBq, 120 min).
`O=C([O-])CN1CCN(CC(=O)[O-])CCN(CC(=O)NC[C@H]2CC[C@H](C(=O)N[C@H](Cc3cnc4ccccc4c3)C(=O)NCCCC[C@H](NC(=O)N[C@@H](CCC(=O)O)C(=O)O)C(=O)O)CC2)CCN(CC(=O)[O-])CC1.[64Cu+2]` has a tissue uptake of 0.96 %ID/g (ex vivo gamma counting; 22Rv1 tumour-bearing mice, muscle; intravenous, 0.74 MBq, 1 h post-injection).
With `CCCC[C@H](NC(=O)COCCOCCNC(=O)CN1CCN(CC(=O)O)CCN(CC(=O)O)CC1)C(=O)N[C@H]1CC(=O)NCCCC[C@@H](C(N)=O)NC(=O)[C@H](Cc2c[nH]c3ccccc23)NC(=O)[C@H](CCCNC(=N)N)NC(=O)[C@@H](Cc2ccccc2)NC(=O)[C@H](Cc2c[nH]cn2)NC1=O` [fluorine-18 labelled] the tissue uptake was 0.83 ± 0.14 %ID/g (C57 mice B16-F10 melanoma, liver; intravenous, 0.37 MBq, 2 h).
`N#C[C@@H]1CCCN1C(=O)CNC(=O)c1ccnc2ccc(OCCCN3CCN(C(=O)CCc4ccc5c(c4)CN4CCN6CC(=O)[O][68Ga-]([O]C(=O)C4)([O]5)[O]c4ccc(CCC(=O)N5CCN(CCCOc7ccc8nccc(C(=O)NCC(=O)N9CCC[C@H]9C#N)c8c7)CC5)cc4C6)CC3)cc12` has a tissue uptake of 7.08 ± 0.59 %ID/g (BALB/c nude mice, U-87 MG xenograft, liver; 1 h, blocking, with: DOTA-FAPI-04 40 nmol/mouse co-injected).
With `CCCC[C@H](NC(=O)CNC(=O)CNC(=O)[C@H](CCCCNC(=O)[C@H](CC(N)=O)NC(=O)C(C)c1ccc(CC(C)C)cc1)NC(=O)CN1CCN(CC(=O)O)CCN(CC(=O)O)CCN(CC(=O)O)CC1)C(=O)N[C@H]1CC(=O)NCCCC[C@@H](C(N)=O)NC(=O)[C@H](Cc2c[nH]c3ccccc23)NC(=O)[C@H](CCCNC(=N)N)NC(=O)[C@@H](Cc2ccccc2)NC(=O)[C@H](Cc2c[nH]cn2)NC1=O` (some centres unmarked) [lutetium-177 labelled] the tissue uptake was 4 ± 2.43 %ID/g (C57 mice, tumour-bearing, stomach; 2 h).
With `O=C(NCC1OC2CCC=CCCC2O1)c1ccc(COCCOCCOCC[18F])cc1` (centres unmarked) the tissue uptake was 4.5 ± 0.4 %ID/g (healthy female BALB/c nude mice, blood; intravenous, 7.4 MBq per mouse, 30 min).
`Cc1cc(C)n(CCN(CCN)CCCCCCNC(=O)[C@@H](N)Cc2c[nH]c3ccccc23)n1.[99Tc+].[C-]#[O+].[C-]#[O+].[C-]#[O+]` gave a tissue uptake of 7.4 ± 1.15 %IA/g (BALB/c nude mice, A549 xenograft, kidney; intravenous, 4 h).
`CCCC[C@H](NC(=O)CNC(=O)CNC(=O)[C@H](CCCCNC(=O)[C@H](CC(=O)O)NC(=O)C(C)c1ccc(CC(C)C)cc1)NC(=O)CN1CCN(CC(=O)O)CCN(CC(=O)O)CCN(CC(=O)O)CC1)C(=O)N[C@H]1CC(=O)NCCCC[C@@H](C(N)=O)NC(=O)[C@H](Cc2c[nH]c3ccccc23)NC(=O)[C@H](CCCNC(=N)N)NC(=O)[C@@H](Cc2ccccc2)NC(=O)[C@H](Cc2c[nH]cn2)NC1=O` (some centres unmarked) [lutetium-177 labelled] gave a tissue uptake of 0.36 ± 0.09 %ID/g (C57 mice, tumour-bearing, spleen; 2 h).
`O=C(NCC1OC2CCC=CCCC2O1)c1ccc([18F])nc1` (centres unmarked) gave a tissue uptake of 1.3 ± 0.1 %ID/g (healthy female BALB/c nude mice, spleen; intravenous, 7.4 MBq per mouse, 60 min).
With `Cc1cc(C)n(CCN(CCN)CCCCCCNC(=O)[C@@H](N)Cc2c[nH]cn2)n1.[99Tc+].[C-]#[O+].[C-]#[O+].[C-]#[O+]` the tissue uptake was 0.65 ± 0.17 %IA/g (BALB/c nude mice, MCF7 xenograft, muscle; intravenous, 15 min).
